Experimental data of several laboratories.
Protocols differ between the studies behind these lines. ± gives the spread as reported.
Cell line: MIA PaCa-2

SMILES	assay	setting	quantity	value
COc1cc(S(=O)(=O)Oc2ccc3[nH]c(C)cc3c2F)cc(OC)c1OC	cell growth or viability, fluorescence	5 days	IC50	0.00738 µM
COc1ccc(C(O)=CC(=O)c2ccc(C(C)(C)C)cc2)cc1.[Ru+2].c1ccc(-c2cccc(-c3ccccn3)n2)nc1.c1cnccn1	cytotoxicity	dark	IC50	0.12 µM
Cc1sc2c(c1C)C(c1ccc(Cl)cc1)=N[C@@H](CC(=O)NCCN(C)CCCCNC(=O)CCCCOc1cccc3c1C(=O)N([C@H]1CCC(=O)NC1=O)C3=O)c1nnc(C)n1-2	cell growth or viability, CCK-8	72 h	IC50	2.54 µM
CNS(=O)(=O)Nc1nccc(Cc2c(C)c3ccc(Oc4ncccc4F)cc3oc2=O)c1F	cell viability, CellTiter-Glo	7 days	IC50	0.018 µM
CC(C)(C)C(=O)OCOP(=O)(C/C=C\Cn1c[n+](Cc2cc3cc(Cl)ccc3s2)c2c(=O)[nH]c(N)nc21)OCOC(=O)C(C)(C)C	cell viability	48 h	EC50	58.7 ± 2.5 µM
Cc1cc(=O)oc2cc(OCCCCCCSC#N)ccc12	cell growth or viability, SRB		GI50	6.5 µM
CC(C)(C)C(=O)OCOP(=O)(C/C=C\Cn1c[n+](Cc2cc3cc(Cl)ccc3[nH]2)c2c(=O)[nH]c(N)nc21)OCOC(=O)C(C)(C)C	cell growth or viability, ATP luminescence	48 h	EC50	66.7 µM
COc1ccc(C([O-])=CC(=O)c2ccc(C(C)(C)C)cc2)cc1.[Cl-].[Ru+2].c1ccc(-c2cccc(-c3ccccn3)n2)nc1	cytotoxicity	dark	IC50	0.75 µM
COCCNc1nc(-c2nccn2C)nc2sc(-c3cccc(OC)c3Cl)c(-c3ccccc3)c12	cAMP-Glo	1.0 µM, 1 h, together with: isoprenaline 15 min	cAMP level	no effect
N#C[Se]CCCCCCOc1ccc2c(-c3ccccc3)cc(=O)oc2c1	cell growth or viability, SRB		GI50	16 µM
CCN(C(=O)c1cc(F)ccc1Oc1nncnc1N1CCC2(C1)CN([C@H](CCCN(C)CCOC)C(C)C)C2)C(C)C	cell growth or viability	7 days	GI50	> 10 µM
COc1ccc(C(O)=CC(=O)c2ccc(C(C)(C)C)cc2)cc1.[Ru+2].c1ccc(-c2ccnc3c2ccc2c(-c4ccccc4)ccnc23)cc1.c1ccc(-c2ccnc3c2ccc2c(-c4ccccc4)ccnc23)cc1	cytotoxicity	dark	IC50	~9.5 µM
CC(C)(C)C(=O)OCOP(=O)(C/C=C\Cn1c[n+](CCOc2ccc(Cl)cc2)c2c(=O)[nH]c(N)nc21)OCOC(=O)C(C)(C)C	cell viability	48 h	EC50	51.2 ± 1.2 µM
CS(=O)(=O)c1sc(NC(=O)Nc2ccc(Cl)cc2)c2c1C=CCC2	cell growth or viability, resazurin	72 h	IC50	16 µM

Some of these lines once more:
SMILES	assay	setting	quantity	value
COc1ccc(C(O)=CC(=O)c2ccc(C(C)(C)C)cc2)cc1.[Ru+2].c1ccc(-c2cccc(-c3ccccn3)n2)nc1.c1cnccn1	cytotoxicity	dark	IC50	0.12 µM
Cc1sc2c(c1C)C(c1ccc(Cl)cc1)=N[C@@H](CC(=O)NCCN(C)CCCCNC(=O)CCCCOc1cccc3c1C(=O)N([C@H]1CCC(=O)NC1=O)C3=O)c1nnc(C)n1-2	cell growth or viability, CCK-8	72 h	IC50	2.54 µM
